Published values from different studies.
Each line is one published result; not all experiments were run side by side. “And” joins repeats or separate records; there may be more than shown. ± gives the spread as reported.
ESR1: Estrogen receptor (ESR1, Homo sapiens, UniProt P03372)
RIPK1: Receptor-interacting serine/threonine-protein kinase 1 (RIPK1, Homo sapiens, UniProt Q13546)
ESR2: Estrogen receptor beta (ESR2, Homo sapiens, UniProt Q92731)
T1: DNA aptamer; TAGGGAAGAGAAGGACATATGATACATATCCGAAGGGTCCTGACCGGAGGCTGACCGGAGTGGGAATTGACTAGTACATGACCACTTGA

For `C#CCCCC[C@H](C)C[C@@H](C)C(=O)N(C)[C@@H](C)C(=O)N1CCC[C@H]1C(=O)N(C)[C@H](C(=O)N(C)[C@H](C(=O)OC)C(C)C)C(C)C`, “stabilization temperature limit” read at most 46 °C (BCL2 (Homo sapiens, UniProt P10415); cellular thermal shift; DU-145; highest temperature with stabilization).
For `CCCCOc1ccc(C(=O)OCC[N+]2(C)CC=CCC2)cc1` (stereo not shown), the cooperativity factor was 0.0013 ± 0.0002 (CHRM3 (Homo sapiens, UniProt P20309); antagonist, measured: inositol phosphates; CHO; M3, added: carbachol).
Under MEIS2 ubiquitination, `O=C1CCC(N2C(=O)c3cccc(Cl)c3C2=O)C(=O)N1` (stereo not shown) is recorded as “inhibited” (Protein cereblon, in CRL4 complex (CRBN, Homo sapiens, UniProt Q96SW2); CRL4-CRBN ubiquitination, inhibitor, immunoblotting; concentration not given).
`C[C@H](CCC(=O)N[C@@H](CCC(=O)Nc1ccc(F)nc1)C(=O)O)[C@H]1CC[C@H]2[C@@H]3[C@H](O)C[C@@H]4C[C@H](O)CC[C@]4(C)[C@H]3CC[C@]12C` has a Kt of 11.7 µM (SLC10A2 (Homo sapiens, UniProt Q12908); transport, substrate, LC-MS/MS; ASBT-MDCK cells).
`CCCCCCCCCCCCSc1nc2c([nH]1)c(=S)n(C)c(=O)n2C` gave a reporter activity of 49% (ESR1; reporter gene, ERE luciferase; T47D-KBluc; 10 µM, 24 h, added: estradiol 5 nM; reference: maximal luciferase activity).
With `O=C(Cc1cccc(C(F)(F)F)c1)Nc1cc(Oc2c(F)cc3nc(NC(=O)C4CC4)sc3c2F)ccc1F` the selectivity ratio was over 52 (RIPK1; KINOMEscan binding Kd; reference: RIPK1 over RIPK3, higher = more RIPK1-selective).
`COc1cncc(-c2cc(F)cc(CNC(=O)c3cc(N4CC[C@@](C#N)(C5CC5)C4=O)cc(C)n3)c2)c1` has a melting temperature of 68.3 °C and 67.4 °C (Bifunctional glutamate/proline--tRNA ligase, prolyl-tRNA synthetase domain (EPRS1, Homo sapiens, UniProt P07814); thermal shift).
`C[C@H](N)C(=O)N[C@@H](CCCNC(=N)N)C(=O)N[C@H](C(=O)N[C@@H](CCCC[N+](C)(C)C)C(=O)N[C@@H](CCC(N)=O)C(=O)N[C@H](C(=O)N[C@@H](C)C(=O)N[C@@H](CCCNC(=N)N)C(=O)N[C@@H](CCCCN)C(=O)N[C@@H](CO)C(=O)N[C@H](C(=O)NCC(=O)NCC(=O)N[C@@H](CCCCN)C(=O)N[C@@H](C)C(=O)N[C@@H](CCCCNC(=O)c1ccc2c(c1)C(=O)OC21c2ccc(O)cc2Oc2cc(O)ccc21)C(N)=O)[C@@H](C)O)[C@@H](C)O)[C@@H](C)O` — result for “binding free energy”: -6.52 ± 0.167 kcal/mol (Inhibitor of growth protein 1, PHD finger (ING1, Homo sapiens, UniProt Q9UK53); fluorescence polarisation; 25 °C, added: H3K4me3 peptide).
`CCN(CCCC[C@H](NC(=O)[C@H](Cc1ccc(OC)c(OC)c1)NC(=O)[C@H](C)NC(=O)[C@H](CC1CCCCC1)NC(=O)c1ccc(Br)c(N)c1)C(=O)N[C@@H](CO)C(=O)OC)C(C)C` — result for “competition of probe pulldown”: “inhibited” (Chromobox protein homolog 3 (Homo sapiens, UniProt Q13185); binding, measured: CBX3; HEK-293T cell lysate; concentration not given).
`Cc1ncsc1-c1ccc(C(CO)NC(=O)C2CC(O)CN2C(=O)C(C(C)C)n2cc(-c3ccc(COc4c(-c5c(C)c(F)cc6[nH]ncc56)c(C5CC5)cc5c(N6CC7CC6CN7)nc(OC6CCOCC6)nc45)cc3)nn2)cc1` (stereo not shown) gave a protein degradation of 82% (GTPase KRas (KRAS, Homo sapiens, UniProt P01116, G12D); degrader; mouse PK-59 xenograft, tumour; intravenous, 10 mg/kg single, 24 h).
For `CCC(=C(c1ccc(O)cc1)c1ccc(OCCN(C)CCOCCOCCOCCOCCOCCOCCOCCOCCOCCOCCN(C)CCOc2ccc(C(=C(CC)c3ccccc3)c3ccc(O)cc3)cc2)cc1)c1ccccc1` (mixture of isomers), “relative binding affinity” read 9.53 ± 2.4% (ESR2; concentration not given, Z-Z:Z-E:E-E 1:2:1, added: [3H]-estradiol; reference: estradiol).
`CC(Cc1ccc(Cl)cc1)=C(c1ccc(Cl)cc1)c1ccc(OCCN2CCCCCC2)cc1` gave a fold activation of 1.05 ± 0.16 fold (ESR1; reporter gene, agonist, yeast estrogen screen; 1 µM; reference: DMSO).
The binding occupancy of `Nc1nc2cnc(C(=O)N3CCOC[C@@H]3c3ccc(C(F)(F)F)cc3)cc2c2c1COC2` is reported as 94% (Protein arginine N-methyltransferase 5, MTA-bound (PRMT5, Homo sapiens, UniProt O14744); SPR; concentration not given, added: MTA).
With `CSCC[C@H](NC(=O)[C@H](Cc1c[nH]c2ccccc12)NC(=O)[C@@H](NC(=O)[C@@H](NC(=O)[C@@H](NC(=O)[C@H](C)NC(=O)[C@@H](NC(=O)[C@H](C)NC(=O)[C@H](CCCCN)NC(=O)[C@H](CCCCN)NC(=O)[C@@H](NC(=O)[C@H](CC(N)=O)NC(=O)[C@H](CCC(=O)O)NC(=O)[C@@H](N)CCSC)C(C)C)[C@@H](C)O)[C@@H](C)O)[C@@H](C)O)[C@@H](C)O)C(=O)N[C@H](C(=O)N1CCC[C@H]1C(=O)N[C@H](C(=O)N[C@@H](CCCNC(=N)N)C(=O)N[C@@H](CCC(N)=O)C(=O)O)[C@@H](C)O)C(C)C` the –TΔS° was 5.9 ± 1.2 kcal/mol (Recombining binding protein suppressor of hairless (Rbpj, Mus musculus, UniProt P31266); isothermal titration calorimetry; pH 6.5, 25 °C).
`CNCC=C(C)C=CC=CC=CC1=C(C)CCCC1(C)C`: “cell surface expression” about 4 fold (Rhodopsin (RHO, Homo sapiens, UniProt P08100, T289P); pharmacological chaperone, immunostaining, nonpermeabilized cells; 661W; 2.5 µM, 16 h; reference: untreated cells).
`O=C1c2ccc(O)cc2OC(Oc2ccc(-c3coc4cc(O)ccc4c3=O)cc2)C1(O)c1ccc(O)cc1` (stereo not shown) gave a Km of 405 ± 5.8 µM (PRXC1A (Armoracia rusticana, UniProt P00433); oxidation, substrate).
`CC(=O)N(CC(=O)N(C)[C@@H](C)C(=O)N(Cc1c[nH]c2cc(Cl)ccc12)[C@@H](C)C(=O)N(C)[C@@H](C)C(=O)N(CCC(C)(C)C)[C@@H](C)C(=O)N1CCNCC1)Cc1ccccc1` has a kon of 537000 M⁻¹ s⁻¹ (E3 ubiquitin-protein ligase Mdm2, N-terminal domain 17-125 (MDM2, Homo sapiens, UniProt Q00987); binding, SPR; PBS with Tween; 10 °C, immobilised peptoid).
`CCC(=C(c1ccc(Cl)cc1)c1ccc(OCCN2CCOCC2)cc1)c1ccccc1` — result for “β-galactosidase activity fold”: 4.19 (ESR1; reporter gene, agonist, yeast estrogen screen; 1 µM; reference: DMSO).
`CCC(=C(c1ccc(O)cc1)c1ccc(OCCN(C)CCOCCOCCOCCOCCOC)cc1)c1ccccc1` (mixture of isomers): “relative binding affinity” 34.2 ± 1.7% (ESR2; radioligand competition binding; concentration not given, Z-Z/Z isomer form, added: [3H]estradiol tracer; reference: estradiol).
The kon of `C=CCCCCCCO[C@@H]1O[C@H](CO)[C@@H](O)[C@H](O[C@@H]2O[C@H](CO)[C@H](O)[C@H](O)[C@H]2O[C@@H]2O[C@@H](C)[C@@H](O)[C@@H](O)[C@@H]2O)[C@H]1NC(C)=O` is reported as under 23000 M⁻¹ s⁻¹ (ABO (Homo sapiens, UniProt P16442, G235S/G268A/L266M/R176G); methyl-TROSY NMR titration lineshape; two-state binding model, added: acceptor binding, saturating UDP).
For `Cc1cc([C@H](C(=O)N2C[C@H](O)C[C@H]2C(=O)N[C@@H](CC(=O)N2CCC(N3CCC(C#Cc4ccc(C(=O)N[C@H]5C(C)(C)[C@H](Oc6ccc(C#N)c(Cl)c6)C5(C)C)cc4)CC3)CC2)c2ccc(-c3scnc3C)cc2)C(C)C)on1`, protein level read “no effect” (NR3C1 (Homo sapiens, UniProt P04150); degrader, western blot; T47D; 0.01 to 1000 nM, 24 h).
With `CC(C)C(=O)N1CC=C(c2cc3c(Nc4cc5ncsc5cc4F)ncnc3s2)CC1` the remaining activity was 100 ± 5% (RIPK1; enzyme activity; 1 µM; reference: untreated).
`O=C(/C=C/c1ccc2c(c1)OCCO2)c1ccc(Cl)s1` gave a potency ratio of 118 fold (MAOB (Homo sapiens, UniProt P27338); enzyme activity, inhibitor, Amplex Red, benzylamine substrate; reference: chalcone over compound).
`CNc1nc(C#Cc2ccc(Cl)s2)nc2c1ncn2[C@@H]1O[C@H](CO)[C@@H](O)[C@H]1O` gave a kon of 820000 ± 380000 M⁻¹ s⁻¹ (ADORA3 (Homo sapiens, UniProt P0DMS8); kinetic radioligand binding; 10 °C, no GTP, added: [3H]PSB-11).
`C[C@]12CC[C@@H]3c4ccc(O)cc4C(=NOCC(=O)O)C[C@H]3[C@@H]1CC[C@@H]2O` has a Kd of 15.2 nM (T1, DNA aptamer; bead-ELAA; NaCl 100 mM).
For `CCN1CCN(Cc2ccc(NC(=O)c3ccc(C)c(NC(=O)c4cncc(-c5cccs5)c4)c3)cc2C(F)(F)F)CC1`, phosphorylation read “inhibited” (DDR2 (Homo sapiens, UniProt Q16832); inhibitor, IP and Western blot; 293T expressing wild-type DDR2; concentration not given).
Under “log Kd minus log IC50”, `CCNC(=O)[C@H]1O[C@@H](n2cnc3c(NCCCCNC(=O)CCCCCNC(=O)COc4ccc(/C=C/C5=[N+]6C(=Cc7ccc(-c8cccs8)n7[B-]6(F)F)C=C5)cc4)ncnc32)[C@H](O)[C@@H]1O` is recorded as 2.03 (ADORA1 (Homo sapiens, UniProt P30542); CRE reporter gene; CHO-A1; Gi response, added: forskolin).
The Hill slope of `C[C@@]1(CCCN2CCN(c3ccccn3)CC2)Cc2cc(Cl)ccc2C1=O` is reported as -0.59 ± 0.02 (HTR7 (Homo sapiens, UniProt P34969); binding, radioligand binding; HEK293 transfected, membranes; added: [3H]5-HT).

Some of these lines once more:
Under MEIS2 ubiquitination, `O=C1CCC(N2C(=O)c3cccc(Cl)c3C2=O)C(=O)N1` (stereo not shown) is recorded as “inhibited” (Protein cereblon, in CRL4 complex (CRBN, Homo sapiens, UniProt Q96SW2); CRL4-CRBN ubiquitination, inhibitor, immunoblotting; concentration not given).
`C[C@H](CCC(=O)N[C@@H](CCC(=O)Nc1ccc(F)nc1)C(=O)O)[C@H]1CC[C@H]2[C@@H]3[C@H](O)C[C@@H]4C[C@H](O)CC[C@]4(C)[C@H]3CC[C@]12C` has a Kt of 11.7 µM (SLC10A2 (Homo sapiens, UniProt Q12908); transport, substrate, LC-MS/MS; ASBT-MDCK cells).
`CCCCCCCCCCCCSc1nc2c([nH]1)c(=S)n(C)c(=O)n2C` gave a reporter activity of 49% (ESR1; reporter gene, ERE luciferase; T47D-KBluc; 10 µM, 24 h, added: estradiol 5 nM; reference: maximal luciferase activity).
